Measured values of several laboratories.
Numbered parts are unrelated; each lists some results of a single study.

Study 1 — technique: universal PBM; molecule type: double-stranded DNA, one strand shown; medium: in vitro; concentration: 600 nM; reading: higher = stronger binding
Target: Sal-like protein 4, full length isoform A (SALL4, Homo sapiens, UniProt Q9UJQ4, residues 1-1053)
Sequence of UniProt Q9UJQ4 (whole entry, looked up): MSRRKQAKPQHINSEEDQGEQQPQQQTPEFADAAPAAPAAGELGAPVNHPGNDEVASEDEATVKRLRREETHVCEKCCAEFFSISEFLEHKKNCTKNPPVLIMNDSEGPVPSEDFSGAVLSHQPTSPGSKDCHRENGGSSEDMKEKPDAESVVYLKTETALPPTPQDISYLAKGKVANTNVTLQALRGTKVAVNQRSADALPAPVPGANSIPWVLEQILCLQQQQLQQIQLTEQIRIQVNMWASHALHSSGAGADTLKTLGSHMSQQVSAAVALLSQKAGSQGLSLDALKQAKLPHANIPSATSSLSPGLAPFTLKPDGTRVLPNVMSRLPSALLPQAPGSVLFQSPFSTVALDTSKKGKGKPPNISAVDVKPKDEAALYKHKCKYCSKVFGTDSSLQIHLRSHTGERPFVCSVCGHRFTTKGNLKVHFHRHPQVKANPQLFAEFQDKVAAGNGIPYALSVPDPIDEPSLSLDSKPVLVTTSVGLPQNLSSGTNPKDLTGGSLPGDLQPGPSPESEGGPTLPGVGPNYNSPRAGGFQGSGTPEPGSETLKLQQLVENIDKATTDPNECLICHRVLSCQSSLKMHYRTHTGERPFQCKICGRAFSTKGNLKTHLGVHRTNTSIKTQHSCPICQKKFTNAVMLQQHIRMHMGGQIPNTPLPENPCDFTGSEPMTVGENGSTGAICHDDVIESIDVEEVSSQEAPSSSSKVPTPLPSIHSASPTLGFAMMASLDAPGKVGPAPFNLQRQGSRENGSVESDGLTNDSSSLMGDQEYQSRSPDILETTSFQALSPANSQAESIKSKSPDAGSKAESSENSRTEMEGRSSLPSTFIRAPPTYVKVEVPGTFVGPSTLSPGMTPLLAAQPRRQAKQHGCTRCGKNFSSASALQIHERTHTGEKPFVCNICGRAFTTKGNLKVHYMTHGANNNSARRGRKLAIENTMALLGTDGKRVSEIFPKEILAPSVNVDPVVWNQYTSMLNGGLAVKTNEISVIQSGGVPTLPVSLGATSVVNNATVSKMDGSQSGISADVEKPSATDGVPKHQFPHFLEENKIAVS
Notes: 8-mer, flanks averaged, mean of replicates
| Strand | E-score |
| --- | --- |
| GCATGTCC | -0.164 |
| CTGCACAG | -0.21 |
| AGGCCACA | -0.199 |
| GAGGAAGA | 0.0305 |
| AAGAGCTA | 0.0694 |
| GAACGCAA | 0.0644 |
| GACACCTC | -0.243 |
| TACCGATA | 0.121 |
| CTTTCGCC | 0.0149 |
| ATAAACTA | 0.349 |
| AACAATCT | 0.198 |
| CGCTACGC | -0.225 |
| AAGTCCGC | -0.219 |
| ACTAGCAA | 0.242 |
| ATTTTTCG | 0.307 |
| CACCCGTG | -0.233 |
| GTAGGACA | 0.0595 |
| CTTATGGA | 0.171 |
| GTAGACAA | 0.147 |
| CCACCTCG | -0.258 |
| ACTTTCCA | 0.176 |
| ATCCGCGA | -0.0688 |
| ACTTCGGG | -0.16 |

Study 2 — technique: RNA Bind-n-Seq; molecule type: RNA; medium: in vitro; concentration: 20 nM; notes: 6-mer, flanks averaged, single round; with: 150 mM LiCl; relative to: input library; reading: higher = stronger binding
Target: TAR DNA-binding protein 43, full length, His tag (TARDBP, Homo sapiens, UniProt Q13148, residues 1-414)
| Strand | 6-mer enrichment (R) |
| --- | --- |
| GAGCAA | 0.902 |
| UGACUC | 0.858 |
| UAGAGU | 1.03 |
| UGUUCU | 1.05 |
| UACUAA | 0.86 |
| CAGCAC | 0.884 |
| UUGUAU | 1.25 |
| AACGUU | 0.846 |
| GUAUUC | 0.914 |
| GGACCG | 0.983 |
| AUAAAG | 0.894 |
| AUUUUU | 1.48 |
| AGCUUC | 0.833 |
| CCCGCU | 1 |
| CUCCUA | 0.935 |
| AGAUAA | 0.837 |
| UGACGA | 0.849 |
| AGACUA | 0.818 |
| CUCCUC | 0.972 |
| CUGUUU | 1.14 |
| GCAAUG | 0.948 |
| CCCAAA | 0.945 |
| AUGUAC | 0.909 |
| CCAGGU | 0.962 |

Study 3 — technique: protein binding microarray; molecule type: double-stranded DNA, one strand shown; medium: in vitro; concentration: not given; relative to: not given; reading: higher = stronger binding
Target: Histone acetyltransferase KAT6A, both winged helices, GST fusion (KAT6A, Homo sapiens, UniProt Q92794, residues 1-181)
Notes: 8-mer, flanks averaged, mean of 2 arrays, mostly near background
Target sequence (chain): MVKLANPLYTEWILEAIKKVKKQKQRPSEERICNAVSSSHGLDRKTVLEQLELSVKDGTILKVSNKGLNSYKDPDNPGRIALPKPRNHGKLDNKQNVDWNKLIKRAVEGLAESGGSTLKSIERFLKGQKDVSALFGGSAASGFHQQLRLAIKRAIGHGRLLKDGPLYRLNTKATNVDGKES
| Strand | E-score |
| --- | --- |
| CAACGCCA | -0.0445 |
| AACGACTC | -0.18 |
| CACCCGAG | -0.105 |
| TGAAGGCA | -0.0927 |
| ACAACTGG | -0.148 |
| ACGATGTC | 0.0375 |
| CGTTATAC | 0.0766 |
| CGATATAA | -0.0452 |
| AGCAAACG | -0.0837 |
| GGTTTCGA | 0.195 |
| GTATGTTA | 0.035 |
| ACGCAGGA | 0.0249 |
| AGCACTAT | -0.0152 |
| CAAGCTTG | 0.0305 |
| AAACAACT | -0.161 |
| GCCCCATA | -0.227 |
| AAGTGTAT | -0.0092 |
| CCAAACCG | 0.0394 |
| AAGCATTG | -0.156 |
| GTGGCTAA | -0.0289 |
| CGCCAACG | 0.179 |
| AATCAGAT | -0.134 |
| AGGGGGCC | -0.0984 |
| GAAATTAC | -0.0121 |
| CGACAGAG | 0.0488 |

Study 4 — technique: RNA Bind-n-Seq; molecule type: RNA; medium: in vitro; concentration: 100 nM; relative to: input RNA pool; reading: higher = stronger binding
Target: RING finger protein unkempt homolog, zinc fingers 1-6, SBP tag (UNK, Homo sapiens, UniProt Q9C0B0, residues 30-357)
Sequence of UniProt Q9C0B0 (30-357, looked up): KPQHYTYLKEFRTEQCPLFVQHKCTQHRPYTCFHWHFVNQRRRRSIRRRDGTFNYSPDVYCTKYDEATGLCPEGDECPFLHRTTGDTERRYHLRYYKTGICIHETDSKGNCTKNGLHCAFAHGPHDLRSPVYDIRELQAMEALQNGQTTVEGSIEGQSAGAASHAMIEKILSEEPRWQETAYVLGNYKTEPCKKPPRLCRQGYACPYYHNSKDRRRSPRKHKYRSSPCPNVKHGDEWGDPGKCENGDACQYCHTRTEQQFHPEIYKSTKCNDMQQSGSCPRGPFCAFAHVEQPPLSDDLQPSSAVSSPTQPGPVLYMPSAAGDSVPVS
Notes: RNA with constant flanks, vertebrate orthologous sites, ends assumed
| Strand | bound/input enrichment [ratio] |
| --- | --- |
| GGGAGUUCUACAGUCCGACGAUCACACUUAUAUUGUGGCAUAUAGUCAACAUGGAAGUAGACCAGGUCUGCUGAUUUGAAAUUUAGAUUUUUUUAAUUAUGUACUGGGGACAGGUUUUUGUCGCUUUACAUUGCUUCCUAGUUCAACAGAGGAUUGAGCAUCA | 4.29 |
| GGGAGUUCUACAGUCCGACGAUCAAUCAAUAGAACUACAUAAUACUAAAGUUGCAGUUGAAAGGAUAUCCAAGUAUGUGUUCGUAGUUACUAAAAGAAGUAUAGCUGUUAUUGCCUUGUAUUUAUAGCCCUUGUUUCAGGUCUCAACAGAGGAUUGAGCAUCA | 0.916 |
| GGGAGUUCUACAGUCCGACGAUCCCGAAAGGCCAGAUCCCCUCCUCCCUUCUACUGCUUCUACCAACUGGAAGCACAGAAAACUAGAAUUUCAUUUAUUUUGUUUUUAAAAAUAUAUGUUGAUUUCUUGUAACAUCCAAUAGGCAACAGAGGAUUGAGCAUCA | 0.343 |
| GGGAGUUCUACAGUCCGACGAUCGCUCUAGUUCUUAAGAACCAACACUCCCAAAAGAGGUAGAAAAAAGUUUACAACAUAAUCUAGUUUAUGAAGAAGUCUUGUGCUAGAAUACUUUUUUAAAAGUAUUUUUGAAUACCAUUACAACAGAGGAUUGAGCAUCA | 0.443 |
| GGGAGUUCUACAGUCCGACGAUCCCCCAGCACACUGAUAAAGACCGUGGAUUGGCUGCUCGUAUUUUCCUUAUUCUUUUUAAUUAGUUUUAUUAUGUAUGCUACCAUCCGGACUGAGAGCAUUCGGUGGCUGAUUCCAGGACACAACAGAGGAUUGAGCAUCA | 2.01 |
| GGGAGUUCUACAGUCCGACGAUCCUCCCCGUCACUGUGAUGUUUAAAAUAUGCACAGUCCUAAUUUUGUUUCCUAAAUGAUUCUAGUAAUUUCCUAGCAAUAGCUCUAUCUUACCUGUUAUUUAUCAAUUUCCCCCCCAGGGUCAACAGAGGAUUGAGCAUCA | 2.44 |
| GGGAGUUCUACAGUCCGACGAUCUCGGUUUAUAGCUGCUCUGAUUUAUUGCUCAUUUGCCUCUUGCAGCUUUACAUAUCUGAAAUCUUGACUUUGGUUUGAAAUGGCAUCCAAACCAGGCUGUUACUAUCAGACUUCCUAGAACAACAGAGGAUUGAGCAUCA | 0.332 |
| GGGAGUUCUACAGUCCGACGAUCAUUCAAACCUGUGGUACCAUGGCCUCAUGUUGAAGGAGUAGAAGUGGACUUAGAGUCUAUUAGAAGAAAAAACAAGGCCAAAAAUGAACAAGAGCGCCAUGCUGGAGGAGAUAACCAGAACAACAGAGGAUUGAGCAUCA | 0.36 |
| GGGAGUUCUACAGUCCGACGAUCACUCUAGUUCUUAACAACCAACACUCCUAAAAGAGUUAGAAAAAAGUUUACAACAUAAUCUAGUUUACAAAGAAGUCUUGUGCUAGAAUACUUUUUAAAAAGUAUUUUUGAAUACCAUUACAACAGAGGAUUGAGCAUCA | 0.789 |
| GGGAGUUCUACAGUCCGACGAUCCACGUCUGCAUAACUCCAGACCCUUCCUUCUCGCCCUUUGACCCCUCAUGCAUUUAACCAUAUUCACACGUCCACUUUUAUAAAUAGCAGGAUAAAUGCAAAGGAGCUCCCUGGGGCAUUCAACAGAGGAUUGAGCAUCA | 0.509 |
| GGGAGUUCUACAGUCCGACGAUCGUGGGGAUGAGGGUGGGAUGGGAAAGGGAUGAAUGGAUGUUAUUGGCAUUUUUAAGUGUUUAGAGUUUUUUGGGGGUUUGGGUUUUUUGUUUUGUUUUGUUUUUCCUUGUAUUCUUUUUUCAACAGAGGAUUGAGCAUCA | 2.09 |

Study 5 — technique: RNA Bind-n-Seq; molecule type: RNA; medium: in vitro; concentration: 365 nM; relative to: no-protein control; reading: higher = stronger binding
Target: RNA binding protein fox-1 homolog 2, RRM domain, GST-SBP tag (RBFOX2, Homo sapiens, UniProt O43251-10, residues 100-194)
Notes: natural RNA segment, single round, ends assumed
Construct (chain): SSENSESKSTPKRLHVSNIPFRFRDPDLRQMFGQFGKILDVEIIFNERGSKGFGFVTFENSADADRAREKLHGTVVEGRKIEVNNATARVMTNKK
| Strand | RBNS enrichment (R) |
| --- | --- |
| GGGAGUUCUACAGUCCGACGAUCCUCGAGUAAUCAGAAAUCACAUCCCUGGAGAACCCACCACCCACUAUGGACCUCAGGGCACUCUCCGUGCUGCCCACAAAGACUUGGGUGGAAAAGACUCAAAGGCACUUUGGAAUUCUCGGGUGCCAA | 0.158 |
| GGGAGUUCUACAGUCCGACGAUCGGUUCUAACCUAGUGUGUUAAUUUAUCUGAAUUUGGAUUUUUAAAAAGUAAUAAAAAGUUAAAUGUAUUCCUUUGGAUUCCUUAUUUCUUUCCUUUUUGAAACAUGAACCUGGAAUUCUCGGGUGCCAA | 0.859 |
| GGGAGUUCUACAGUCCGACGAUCCUGGGCUGCGGGGAGGCUCUUUUUCUCCCUGGCCUCCAGUGCCCACCAGGAGGAUCUGCGCACGGUGCACAGCCCACCAGAGCACUACAGCCUUUUAUUGAGUGGGGCAAUGGAAUUCUCGGGUGCCAA | 0.45 |
| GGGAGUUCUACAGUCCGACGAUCACAGAACAGCUGUCCAUCAGUGAGCUUGUACAGUGCUGAUUUGCAGCUCCAACAUGCGGGAUGUUCAUCCUCCUACACAGAUUCUUGUUGGGUGAAACAGAUUGUCCUAUUGGAAUUCUCGGGUGCCAA | 0.694 |
| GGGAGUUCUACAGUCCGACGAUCGAGGAUUUGGCUGGAAGGGGAUUCUCCGCUGGCACAUGGGAGAAGGCCAUCUUCUGUGUCGGUGCUGUGAUCUGCCUUGUUCUCACUUGCUGAGGAUAAGGGCAUACACGUGGAAUUCUCGGGUGCCAA | 0.555 |
| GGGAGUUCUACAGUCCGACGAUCCAACGCUCAUAUUUAUUUCACAAACAGGACCAGCUGAGGGCGGGCGGGGCCAUCGGCUCAGCUCUUGGCUGCCUGGUCAGCCGGUCAGUGUUUUGCGGGGAGAGGUGGCGUGGAAUUCUCGGGUGCCAA | 0.319 |
| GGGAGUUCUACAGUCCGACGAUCAGGUGGGUAGGAAGCUGUGAGUAUGACUUGAAGAAAAAUAUCCUUUUCAGUGACAAAUCAGAGUUUCUUACAAGUUAUUGUCCUGCUCCCUUCCAAGUUGUCUUGAAGAAUGGAAUUCUCGGGUGCCAA | 0.617 |
| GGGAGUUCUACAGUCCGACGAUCUUUAAUUCCCCCACCCCACCCUCUUUCUUUUGGUGGCUUCCACCACCCUUAAUGGUGACAGACUCCUGGGCCUGCCACCUUGGACUUCCCUUAGGCUCACAGUUCAGAUCUGGAAUUCUCGGGUGCCAA | 0.362 |
| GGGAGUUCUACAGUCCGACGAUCAUUUUAUUGGUGAUGAUGAAUGGGAAUGAAAUCAGGGGGCUGUCUACUAGAGCCUGGAAUAAAUAUGCUGCUUUGUGGAUUUUUAAGCCCUUCUCUUCUGUUUCCUUGAGUGGAAUUCUCGGGUGCCAA | 0.512 |
| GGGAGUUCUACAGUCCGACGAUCAUGUAGGACCAGGAGUAUCUCCUCAGGUGACCAGUUUUGGGGACCCGUAUGUGGCAAAUUCUAAGCUGCCAUAUUGAACAUCAUCCCACUGGGAGUGGUUAUGUUGUAUCUGGAAUUCUCGGGUGCCAA | 0.336 |
| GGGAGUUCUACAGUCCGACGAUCAUUUCCUCACUCAGUGGAGAUUUGCCAAAUGAAUAAACGACACCUUUGAGGCCCCAGGUGAAGCGGGGCCCUACUCCGGCCUCUGCCUUGGGCCUCGCCUCUGUCCUCAGUGGAAUUCUCGGGUGCCAA | 0.119 |
| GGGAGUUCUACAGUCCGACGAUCGCCCUAUUUUACAAUUGUAAAACUGAGGCACGAGCAAAGUGAAGACACUGGCUCAUAUUCCUGCAGCCUGGAGGCCGGGUGCUCAGGGCUGACACGUCCACCCCAGUGCAUGGAAUUCUCGGGUGCCAA | 1.62 |

For quick reference, copied from above (study 3):
| Strand | E-score |
| --- | --- |
| AAACAACT | -0.161 |
| GCCCCATA | -0.227 |
| AAGTGTAT | -0.0092 |
| CCAAACCG | 0.0394 |
| AAGCATTG | -0.156 |
| GTGGCTAA | -0.0289 |
| CGCCAACG | 0.179 |
| AATCAGAT | -0.134 |
| AGGGGGCC | -0.0984 |
| GAAATTAC | -0.0121 |
